Measurements of several laboratories.
Protocols differ between the studies behind these lines. “And” joins repeats or separate records; there may be more than shown. Values after ≈ are worked out from the molar mass of the structure shown.
Organism: Staphylococcus epidermidis

The MIC of `Oc1c(Br)cc(Br)c2nc3c(F)cccc3nc12` is reported as 0.78 µM (≈ 0.29 µg/mL) (broth microdilution; methicillin-resistant 35984).
For `O=C(O)CN(CCN(CC(=O)O)CC(=O)O)CC(=O)O`, the MBC was 1000 µM (≈ 292 µg/mL) (MRSE 35984; 24 h).
For `C=C[C@]1(C)C[C@@H](OC(=O)CS[C@@H]2C[C@H]3CC[C@@H](C2)N3C)[C@]2(C)[C@H](C)CC[C@]3(CCC(=O)[C@H]32)[C@@H](C)[C@@H]1O`, the MIC50 was 0.0625 µg/mL (≈ 0.121 µM).
`O=[N+]([O-])c1ccc2c(N=Nc3c(O)ccc4ccccc34)c(O)cc(S(=O)(=O)O)c2c1` gave a growth delay of 1.6 h (LB medium; 50 µM, 50% growth delay).
`CC[C@H]1OC(=O)[C@H](C)[C@@H](O[C@H]2C[C@@](C)(OC)[C@@H](O)[C@H](C)O2)[C@H](C)[C@@H](O[C@@H]2O[C@H](C)C[C@H](N(C)C)[C@H]2O)[C@](C)(O)C[C@@H](C)C(=O)[C@H](C)[C@@H](O)[C@]1(C)O` gave an MIC of over 100 µM (1).
For `CN[C@H](CC(C)C)C(=O)N[C@H]1C(=O)N[C@@H](CC(N)=O)C(=O)N[C@H]2C(=O)N[C@H]3C(=O)N[C@H](C(=O)N[C@H](C(=O)O)c4cc(O)cc(O)c4-c4cc3ccc4O)[C@H](O)c3ccc(c(Cl)c3)Oc3cc2cc(c3O[C@@H]2O[C@H](CO)[C@@H](O)[C@H](O)[C@H]2O[C@H]2C[C@](C)(N)[C@H](O)[C@H](C)O2)Oc2ccc(cc2Cl)[C@H]1O`, the MIC50 was 2 µg/mL (≈ 1.38 µM) (methicillin-resistant, 10 isolates; pH 8.5).
With `c1ccc(CN(CCN(Cc2ccccn2)Cc2ccccn2)Cc2ccccn2)nc1` the MBC was 250 µM (≈ 106 µg/mL) (Calgary Biofilm Device; MRSE 35984, biofilm; 24 h).
The growth of `OB(O)c1csc2ccccc12` is reported as 94.5% and 93.7% and 104% and 103% and 94.7% (100 µM, 10 h; relative to: untreated).
`CN[C@H](CC(C)C)C(=O)N[C@H]1C(=O)N[C@@H](CC(N)=O)C(=O)N[C@H]2C(=O)N[C@H]3C(=O)N[C@H](C(=O)N[C@H](C(=O)O)c4cc(O)cc(O)c4-c4cc3ccc4O)[C@H](O)c3ccc(c(Cl)c3)Oc3cc2cc(c3O[C@@H]2O[C@H](CO)[C@@H](O)[C@H](O)[C@H]2O[C@H]2C[C@](C)(N)[C@H](O)[C@H](C)O2)Oc2ccc(cc2Cl)[C@H]1O` has an MIC range of 1 µg/mL (≈ 0.69 µM) (broth microdilution; methicillin-susceptible clinical isolates).
For `O=C(O)CN(CCN(CC(=O)O)CC(=O)O)CC(=O)O`, the MBC was 250 µM (≈ 73.1 µg/mL) (MRSE 35984).
For `COc1c(N2C[C@@H]3CCCN[C@@H]3C2)c(F)cc2c(=O)c(C(=O)O)cn(C3CC3)c12`, the MIC90 was 2 µg/mL (≈ 4.98 µM) (broth microdilution; methicillin-resistant isolates).
`COc1cccc(OC)c1C(=O)N[C@@H]1C(=O)N2[C@@H]1SC(C)(C)[C@@H]2C(=O)O` gave an MIC of 12.5 µM (≈ 4.76 µg/mL) (1).
The bacterial load of `CN[C@H](CC(C)C)C(=O)N[C@H]1C(=O)N[C@@H](CC(N)=O)C(=O)N[C@H]2C(=O)N[C@H]3C(=O)N[C@H](C(=O)N[C@H](C(=O)O)c4cc(O)cc(O)c4-c4cc3ccc4O)[C@H](O)c3ccc(c(Cl)c3)Oc3cc2cc(c3O[C@@H]2O[C@H](CO)[C@@H](O)[C@H](O)[C@H]2O[C@H]2C[C@](C)(N)[C@H](O)[C@H](C)O2)Oc2ccc(cc2Cl)[C@H]1O` is reported as 5.35 log CFU and 3.86 log CFU and 4.9 log CFU and 3.81 log CFU and 4.97 log CFU and 3.75 log CFU (9397, female ICR mice, peritonitis, heart; dose not given).

For quick reference, copied from above:
The growth of `OB(O)c1csc2ccccc12` is reported as 94.5% and 93.7% and 104% and 103% and 94.7% (100 µM, 10 h; relative to: untreated).
`CN[C@H](CC(C)C)C(=O)N[C@H]1C(=O)N[C@@H](CC(N)=O)C(=O)N[C@H]2C(=O)N[C@H]3C(=O)N[C@H](C(=O)N[C@H](C(=O)O)c4cc(O)cc(O)c4-c4cc3ccc4O)[C@H](O)c3ccc(c(Cl)c3)Oc3cc2cc(c3O[C@@H]2O[C@H](CO)[C@@H](O)[C@H](O)[C@H]2O[C@H]2C[C@](C)(N)[C@H](O)[C@H](C)O2)Oc2ccc(cc2Cl)[C@H]1O` has an MIC range of 1 µg/mL (≈ 0.69 µM) (broth microdilution; methicillin-susceptible clinical isolates).
